Experimental data pooled from the literature.
Protocols differ between the studies behind these lines. ± marks the error that the study gave.
NR1I2: Nuclear receptor subfamily 1 group I member 2 (NR1I2, Homo sapiens, UniProt O75469)
Chain of UniProt O75469 (whole entry, looked up): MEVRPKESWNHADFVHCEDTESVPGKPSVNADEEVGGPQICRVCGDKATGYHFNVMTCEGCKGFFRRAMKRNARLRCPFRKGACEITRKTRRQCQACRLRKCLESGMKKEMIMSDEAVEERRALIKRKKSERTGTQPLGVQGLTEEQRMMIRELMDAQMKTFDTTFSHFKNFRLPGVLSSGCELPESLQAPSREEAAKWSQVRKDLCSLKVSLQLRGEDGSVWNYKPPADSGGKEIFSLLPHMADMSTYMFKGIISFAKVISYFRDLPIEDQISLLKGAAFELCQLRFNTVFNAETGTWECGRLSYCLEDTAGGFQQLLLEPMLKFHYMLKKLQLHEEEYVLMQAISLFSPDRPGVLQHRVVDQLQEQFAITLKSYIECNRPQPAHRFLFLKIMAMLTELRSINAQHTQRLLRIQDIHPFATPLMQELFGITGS
SLCO1B3: Solute carrier organic anion transporter family member 1B3 (SLCO1B3, Homo sapiens, UniProt Q9NPD5)
Chain of UniProt Q9NPD5 (whole entry, unmodified, looked up): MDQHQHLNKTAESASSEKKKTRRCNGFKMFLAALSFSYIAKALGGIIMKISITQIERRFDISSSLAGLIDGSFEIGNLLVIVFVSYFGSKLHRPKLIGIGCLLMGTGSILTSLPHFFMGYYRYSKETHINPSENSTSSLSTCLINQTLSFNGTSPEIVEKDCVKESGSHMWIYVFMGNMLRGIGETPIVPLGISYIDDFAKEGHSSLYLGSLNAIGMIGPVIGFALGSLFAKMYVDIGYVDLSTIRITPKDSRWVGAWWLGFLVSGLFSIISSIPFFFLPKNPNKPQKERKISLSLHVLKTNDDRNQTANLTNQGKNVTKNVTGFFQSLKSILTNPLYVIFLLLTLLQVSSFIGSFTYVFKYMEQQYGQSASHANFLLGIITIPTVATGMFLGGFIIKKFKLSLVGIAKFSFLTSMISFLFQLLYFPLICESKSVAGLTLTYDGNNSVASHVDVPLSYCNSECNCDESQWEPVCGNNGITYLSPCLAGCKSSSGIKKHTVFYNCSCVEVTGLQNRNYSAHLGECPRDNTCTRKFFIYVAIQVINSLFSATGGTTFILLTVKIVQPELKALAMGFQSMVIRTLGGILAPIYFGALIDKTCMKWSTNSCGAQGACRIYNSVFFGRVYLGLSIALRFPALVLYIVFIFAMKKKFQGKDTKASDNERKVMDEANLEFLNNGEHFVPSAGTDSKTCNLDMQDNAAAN
SLC22A11: Solute carrier family 22 member 11 (SLC22A11, Homo sapiens, UniProt Q9NSA0)
Chain of UniProt Q9NSA0 (whole entry, looked up): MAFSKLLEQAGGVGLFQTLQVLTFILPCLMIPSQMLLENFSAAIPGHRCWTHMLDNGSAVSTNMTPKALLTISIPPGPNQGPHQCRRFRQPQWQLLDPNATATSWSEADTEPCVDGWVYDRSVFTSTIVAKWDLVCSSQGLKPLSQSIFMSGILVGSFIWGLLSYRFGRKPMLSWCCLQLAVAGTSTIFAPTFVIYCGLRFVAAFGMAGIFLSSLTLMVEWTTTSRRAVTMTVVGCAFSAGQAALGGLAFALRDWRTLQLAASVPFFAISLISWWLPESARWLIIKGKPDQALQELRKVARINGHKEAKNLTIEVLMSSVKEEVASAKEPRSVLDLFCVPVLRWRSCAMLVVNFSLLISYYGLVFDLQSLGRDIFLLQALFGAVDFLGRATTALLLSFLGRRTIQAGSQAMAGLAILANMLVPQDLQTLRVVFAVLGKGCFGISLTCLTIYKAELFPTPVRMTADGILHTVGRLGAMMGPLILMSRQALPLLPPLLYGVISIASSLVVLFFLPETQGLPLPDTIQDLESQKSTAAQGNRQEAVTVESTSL
CYP2J2: Cytochrome P450 2J2 (CYP2J2, Homo sapiens, UniProt P51589)
Chain of UniProt P21447 (whole entry, looked up): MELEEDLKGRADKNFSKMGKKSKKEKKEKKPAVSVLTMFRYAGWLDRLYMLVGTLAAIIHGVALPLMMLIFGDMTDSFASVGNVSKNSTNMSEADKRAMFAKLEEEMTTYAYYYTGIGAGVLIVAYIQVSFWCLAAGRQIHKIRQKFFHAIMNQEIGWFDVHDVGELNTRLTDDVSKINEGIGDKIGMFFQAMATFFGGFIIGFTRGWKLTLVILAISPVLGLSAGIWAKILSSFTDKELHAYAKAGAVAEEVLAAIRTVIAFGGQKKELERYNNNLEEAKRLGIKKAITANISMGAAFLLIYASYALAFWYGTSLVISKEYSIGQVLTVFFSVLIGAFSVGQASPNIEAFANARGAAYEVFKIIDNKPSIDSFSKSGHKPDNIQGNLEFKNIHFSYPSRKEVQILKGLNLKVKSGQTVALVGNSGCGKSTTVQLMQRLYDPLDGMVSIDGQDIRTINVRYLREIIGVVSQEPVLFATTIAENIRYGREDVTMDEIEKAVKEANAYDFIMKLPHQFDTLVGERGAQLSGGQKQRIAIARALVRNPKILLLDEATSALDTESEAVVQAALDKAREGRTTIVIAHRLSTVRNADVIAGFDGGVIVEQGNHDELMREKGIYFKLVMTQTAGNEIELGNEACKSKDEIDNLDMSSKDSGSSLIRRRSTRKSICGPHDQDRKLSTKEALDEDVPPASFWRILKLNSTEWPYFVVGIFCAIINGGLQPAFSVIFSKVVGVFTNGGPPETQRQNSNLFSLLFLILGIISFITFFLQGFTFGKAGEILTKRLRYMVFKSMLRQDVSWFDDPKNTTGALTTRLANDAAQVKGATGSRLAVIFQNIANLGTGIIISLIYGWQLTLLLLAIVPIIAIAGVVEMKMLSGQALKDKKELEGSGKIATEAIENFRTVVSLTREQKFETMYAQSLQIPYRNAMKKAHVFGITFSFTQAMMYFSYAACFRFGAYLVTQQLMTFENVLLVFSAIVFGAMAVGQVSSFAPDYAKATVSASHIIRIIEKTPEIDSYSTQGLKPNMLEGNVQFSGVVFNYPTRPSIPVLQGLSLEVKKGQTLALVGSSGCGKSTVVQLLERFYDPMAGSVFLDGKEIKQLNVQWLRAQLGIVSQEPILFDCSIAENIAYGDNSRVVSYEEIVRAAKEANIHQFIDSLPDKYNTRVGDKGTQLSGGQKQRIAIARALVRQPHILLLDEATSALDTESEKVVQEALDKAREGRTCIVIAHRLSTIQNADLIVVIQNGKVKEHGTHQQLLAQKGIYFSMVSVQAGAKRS
Chain of UniProt P51589 (whole entry, looked up): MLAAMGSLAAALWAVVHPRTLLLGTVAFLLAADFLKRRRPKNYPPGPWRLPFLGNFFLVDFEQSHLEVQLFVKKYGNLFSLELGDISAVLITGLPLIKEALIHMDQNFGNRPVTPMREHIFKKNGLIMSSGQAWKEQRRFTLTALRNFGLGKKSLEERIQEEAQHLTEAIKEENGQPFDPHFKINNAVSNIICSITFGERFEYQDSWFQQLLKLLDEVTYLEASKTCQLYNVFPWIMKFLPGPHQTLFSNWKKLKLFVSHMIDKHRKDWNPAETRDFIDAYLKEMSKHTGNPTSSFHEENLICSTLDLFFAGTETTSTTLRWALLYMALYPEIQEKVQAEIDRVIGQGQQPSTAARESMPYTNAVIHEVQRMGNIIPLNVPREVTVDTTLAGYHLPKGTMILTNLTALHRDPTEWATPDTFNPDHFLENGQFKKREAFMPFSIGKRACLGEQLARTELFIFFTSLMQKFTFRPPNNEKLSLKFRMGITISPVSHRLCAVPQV
Chain of UniProt P27338 (whole entry, looked up): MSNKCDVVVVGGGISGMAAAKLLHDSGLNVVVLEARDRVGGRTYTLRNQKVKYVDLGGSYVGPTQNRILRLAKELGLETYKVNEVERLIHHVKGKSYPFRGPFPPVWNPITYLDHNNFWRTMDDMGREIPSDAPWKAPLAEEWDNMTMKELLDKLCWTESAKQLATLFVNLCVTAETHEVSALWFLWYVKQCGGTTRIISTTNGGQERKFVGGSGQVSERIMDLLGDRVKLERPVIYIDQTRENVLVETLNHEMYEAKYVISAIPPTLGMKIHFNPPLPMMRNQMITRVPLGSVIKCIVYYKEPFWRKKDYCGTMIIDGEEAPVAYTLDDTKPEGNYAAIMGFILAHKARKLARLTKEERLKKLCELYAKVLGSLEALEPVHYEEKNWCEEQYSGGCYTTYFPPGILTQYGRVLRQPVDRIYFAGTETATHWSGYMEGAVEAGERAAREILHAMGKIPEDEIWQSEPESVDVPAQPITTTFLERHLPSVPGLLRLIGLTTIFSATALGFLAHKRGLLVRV
Chain of UniProt P05177 (whole entry, looked up): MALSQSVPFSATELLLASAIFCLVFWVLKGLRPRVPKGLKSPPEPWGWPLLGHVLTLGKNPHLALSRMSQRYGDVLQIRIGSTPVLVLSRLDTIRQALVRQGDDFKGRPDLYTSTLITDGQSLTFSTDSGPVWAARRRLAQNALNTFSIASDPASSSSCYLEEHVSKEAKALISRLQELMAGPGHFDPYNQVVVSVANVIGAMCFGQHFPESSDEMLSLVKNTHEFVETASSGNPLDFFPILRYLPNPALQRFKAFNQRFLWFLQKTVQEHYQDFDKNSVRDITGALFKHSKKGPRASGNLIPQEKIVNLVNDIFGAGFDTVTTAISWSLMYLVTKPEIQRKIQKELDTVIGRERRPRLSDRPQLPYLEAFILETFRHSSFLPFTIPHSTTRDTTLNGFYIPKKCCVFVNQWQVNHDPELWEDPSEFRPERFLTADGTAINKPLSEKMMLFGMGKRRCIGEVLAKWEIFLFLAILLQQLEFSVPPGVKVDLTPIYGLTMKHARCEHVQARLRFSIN
Chain of UniProt P11712 (whole entry, looked up): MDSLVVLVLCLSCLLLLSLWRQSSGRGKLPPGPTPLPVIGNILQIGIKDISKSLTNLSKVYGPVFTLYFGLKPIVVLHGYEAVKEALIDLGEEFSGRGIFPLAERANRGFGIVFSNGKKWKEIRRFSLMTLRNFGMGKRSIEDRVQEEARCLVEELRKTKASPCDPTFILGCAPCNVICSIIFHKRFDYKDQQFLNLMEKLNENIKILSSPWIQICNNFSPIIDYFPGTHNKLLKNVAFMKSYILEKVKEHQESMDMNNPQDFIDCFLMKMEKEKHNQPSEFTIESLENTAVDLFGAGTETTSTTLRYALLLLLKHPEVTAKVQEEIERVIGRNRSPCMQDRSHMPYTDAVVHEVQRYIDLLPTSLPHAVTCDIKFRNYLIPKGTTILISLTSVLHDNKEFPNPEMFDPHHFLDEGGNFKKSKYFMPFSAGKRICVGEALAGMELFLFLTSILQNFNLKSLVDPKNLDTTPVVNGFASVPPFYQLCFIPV

Structure (SMILES)	target	assay	system	setting	scale	endpoint	value
CCCCCCCC(=O)c1cc(OC)c(OC)c(OC)c1CC(=O)OCC	NR1I2	reporter gene, agonist, Gal4 hybrid reporter	HEK293T transiently transfected	10 µM, 16 h, 0.1% DMSO	baseline: vehicle	activation	1.59 fold
CC(C)c1nc(N(C)S(C)(=O)=O)nc(-c2ccc(F)cc2)c1/C=C/[C@@H](O)C[C@@H](O)CC(=O)O	Solute carrier organic anion transporter family member 1B3 (SLCO1B3, Homo sapiens, UniProt Q9NPD5, M233I/S112A)	uptake, substrate	HEK293-A stably expressing SLCO1B3	2 min	–	Vmax	42.5 ± 2.67 pmol/mg protein/min
O=c1[nH]c(=O)c(Cc2cccc(C(F)(F)F)c2)c([C@H]2CC[C@H](c3ccccc3)CC2)[nH]1	SLCO1B3	uptake, inhibitor	HEK cells expressing SLCO1B3	with: CCK-8	–	IC50	> 1 µM
C[C@H](CCC(=O)NCC(=O)O)[C@H]1CC[C@H]2[C@@H]3[C@H](O)C[C@@H]4C[C@H](OS(=O)(=O)O)CC[C@]4(C)[C@H]3CC[C@]12C	SLC22A11	–	HEK293 control cells	–	–	uptake velocity	3.7 ± 1 pmol/min/mg protein
CNC(=O)c1cc(Oc2ccc(NC(=O)Nc3ccc(Cl)c(C(F)(F)F)c3)cc2)ccn1	Solute carrier organic anion transporter family member 1B3 (SLCO1B3, Homo sapiens, UniProt Q9NPD5, M233I)	uptake, substrate	HEK293-A stably expressing SLCO1B3	2 min	–	Vmax	414 ± 220 pmol/mg protein/min
N[C@H](CNC(=O)c1ccc(-c2ccccc2Br)s1)C(=O)O	P-glycoprotein (human MDR1)	–	MDCK canine MDR1 knock-out, human MDR1 transfected	3 µM, pH 7.4	–	apparent permeability	< 10 ×10⁻⁶ cm/s
N#C[C@H](C[C@@H]1CCCNC1=O)NC(=O)[C@H](CC1CC1)NC(=O)c1cc2cccc(Cl)c2[nH]1	Cytochrome P450 2D6 (CYP2D6, Homo sapiens, UniProt P10635)	NADPH metabolic stability	–	2 µM, pH 7.4, 100 pmol/mL enzyme	–	intrinsic clearance	0.14 µL/min/pmol
CCc1ccccc1-c1ccc(C(=O)NC[C@@H](N)C(=O)O)s1	P-glycoprotein (human MDR1)	–	MDCK canine MDR1 knock-out, human MDR1 transfected	3 µM, pH 7.4	–	apparent permeability	< 10 ×10⁻⁶ cm/s
NCc1cc2c(cc1F)C(=O)N(C1CCC(=O)NC1=O)C2 (centres unmarked)	Amine oxidase [flavin-containing] B (MAOB, Homo sapiens, UniProt P27338)	substrate, LC-MS/MS	recombinant enzyme	10 µM, 20 h, pH 7.4	–	concentration	3.6 µM
Cn1c(=O)c2c(ncn2C)n(C)c1=O	Cytochrome P450 1A2 (CYP1A2, Homo sapiens, UniProt P05177)	–	human, plasma	oral, 200 mg, day 1, alone, arithmetic mean	–	CL/F	6.86 L/h
COc1cc(CC(=O)O)ccc1O	SLC22A11	substrate	HEK293 control cells	5 min	–	uptake rate	36.4 ± 1.9 pmol/min/mg protein
CC[C@H]1[C@@H](O)[C@@H]2[C@H](CC[C@]3(C)[C@@H]([C@H](C)CCNC(=O)NS(=O)(=O)c4ccc(C(C)(C)C)cc4)CC[C@@H]23)[C@@]2(C)CC[C@@H](O)C[C@@H]12	ATP-dependent translocase ABCB1 (ABCB1, Homo sapiens, UniProt P08183)	–	human, plasma	dose not given, mean, with: quinidine	–	half-life	11.4 h
CC1=C(/C=C/C(C)=C/C=C/C(C)=C/C=C/C=C(C)/C=C/C=C(C)/C=C/C2=C(C)CCCC2(C)C)C(C)(C)CCC1	Beta-lactoglobulin (LGB, Bos taurus, UniProt P02754)	–	protein-carotenoid complex	298 K	–	zeta potential	-15.9 ± 1.12 mV
CNC(=O)c1cc(Oc2ccc(NC(=O)Nc3ccc(Cl)c(C(F)(F)F)c3)c(F)c2)ccn1	SLCO1B3	uptake, substrate	HEK293-A stably expressing SLCO1B3	2 min	–	Vmax	2380 ± 1320 pmol/mg protein/min
CCCCc1oc2ccc(NS(C)(=O)=O)cc2c1C(=O)c1ccc(OCCCN(CCCC)CCCC)cc1	CYP2J2	inactivator	–	with: astemizole substrate	–	kinact/KI	8330 M⁻¹ s⁻¹
CC(C)CCCCC(=O)N[C@@H](CCN)C(=O)N[C@H](C(=O)N[C@@H](CCN)C(=O)N[C@H]1CCNC(=O)[C@H]([C@@H](C)O)NC(=O)[C@H](CCN)NC(=O)[C@H](CCN)NC(=O)[C@H](CC(C)C)NC(=O)[C@@H](Cc2ccccc2)NC(=O)[C@H](CCN)NC1=O)[C@@H](C)O	plasma proteins	equilibrium dialysis	human, normal renal function, plasma	intravenous, 0.75 mg/kg, 4 h, 37 °C	–	fu	0.111
C=C1C(=O)O[C@@H]2C[C@@]3(C)CCCC(=C)[C@@H]3C[C@H]12	NR1I2	reporter gene, agonist, Gal4 hybrid reporter	HEK293T transiently transfected	10 µM, 16 h, 0.1% DMSO	baseline: vehicle	activation	3.07 fold
NC(Cc1cc(I)c(Oc2cc(I)c(O)c(I)c2)c(I)c1)C(=O)O (centres unmarked)	SLCO1B3	substrate	COS-1 transfected with SLCO1B3	60 min, 37 °C	baseline: empty vector-transfected cells	uptake	increased

Structure (SMILES)	target	assay	system	setting	scale	endpoint	value
Cc1oc2ccccc2c1Cc1cc(I)c(OCC(=O)O)c(I)c1	Voltage-gated inwardly rectifying potassium channel KCNH2 (KCNH2, Homo sapiens, UniProt Q12809)	ion current, activator, whole-cell patch clamp	HEK293 expressing hERG1	K+ 4 mM, at -20 mV	baseline: untreated	maximal current increase	470%
c1ccc(-c2cccc(Nc3nccc(NC4CCCCC4)n3)c2)cc1	P-glycoprotein (human MDR1)	–	MDR1-MDCKII	10 µM, 1 h, pH 7.4	baseline: B-A over A-B	efflux ratio	7.33
[11CH3]Oc1cccc(CCc2cc(O)c(=O)[nH]n2)c1	ATP-dependent translocase ABCB1 (Abcb1a, Mus musculus, UniProt P21447)	–	CD-1 mice, brain	concentration not given, 5 min, with: cyclosporine	baseline: without cyclosporine	increase in brain uptake	30%
c1ccc(-c2cccc(Nc3nccc(NC4CCCCC4)n3)c2)nc1	P-glycoprotein (human MDR1)	–	MDR1-MDCKII	10 µM, 1 h, pH 7.4	–	Papp (A-B)	15.7 ± 8.9 ×10⁻⁶ cm/s
C[C@H](O)c1cnc(NS(=O)(=O)c2ccc(C(F)(F)F)c(Cl)c2)nc1	17-beta-hydroxysteroid dehydrogenase 13 (Mus musculus, UniProt Q8VCR2)	substrate	mouse, wild type vs knockout	–	–	fraction metabolized	< 0.5
COC(=O)c1cccc(-c2cccc(Nc3nccc(NC4CCCCC4)n3)c2)c1	P-glycoprotein (human MDR1)	–	MDR1-MDCKII	10 µM, 1 h, pH 7.4	–	Papp (A-B)	0.015 ± 0.011 ×10⁻⁶ cm/s
CC[C@H](C)CCCCC(=O)N[C@@H](CCN)C(=O)N[C@H](C(=O)N[C@@H](CCN)C(=O)N[C@H]1CCNC(=O)[C@H]([C@@H](C)O)NC(=O)[C@H](CCN)NC(=O)[C@H](CCN)NC(=O)[C@H](CC(C)C)NC(=O)[C@@H](Cc2ccccc2)NC(=O)[C@H](CCN)NC1=O)[C@@H](C)O	plasma proteins	equilibrium dialysis	human, mild renal insufficiency, plasma	intravenous, 0.75 mg/kg, 4 h, 37 °C	–	fu	5%
COc1cccc(-c2cccc(Nc3nccc(NC4CCCCC4)n3)c2)c1	P-glycoprotein (human MDR1)	–	MDR1-MDCKII	10 µM, 1 h, pH 7.4	–	Papp (A-B)	0.016 ± 0.018 ×10⁻⁶ cm/s
N#Cc1cc(NC(=O)[C@H]2c3ccccc3C(=O)N(CC(F)(F)F)[C@@H]2c2cccnc2)ccc1F	human PXR and CAR	activator	HepG2	–	–	reporter gene	no effect
CC(C)Nc1ccnc(Nc2cccc(-c3ccncc3)c2)n1	P-glycoprotein (human MDR1)	–	MDR1-MDCKII	10 µM, 1 h, pH 7.4	–	Papp (B-A)	53.8 ± 25.2 ×10⁻⁶ cm/s
CCc1cc(/C(C)=N/OCc2ccc(C3CCCCC3)c(C(F)(F)F)c2)ccc1CN1CC(C(=O)O)C1	Cytochrome P450 2C9 (CYP2C9, Homo sapiens, UniProt P11712)	population PK	human, CYP2C9*3/*3, plasma	–	–	CYP2C9-mediated clearance	0.165 L/h
CC(C)Nc1ccnc(Nc2ccccc2-c2ccccc2)n1	P-glycoprotein (human MDR1)	–	MDR1-MDCKII	10 µM, 1 h, pH 7.4	–	Papp (A-B)	18.4 ± 1.21 ×10⁻⁶ cm/s
COc1cccc2c1C(=N)c1c(O)c3c(c(O)c1C2=O)C[C@@](O)(C(C)=O)C[C@@H]3O[C@H]1C[C@H](N)[C@H](O)[C@H](C)O1	CYP2J2	–	–	pH 7.4	–	Kd	6.08 ± 0.58 µM
CC(C)Nc1ccnc(Nc2cccc(-c3ccccc3)c2)n1	P-glycoprotein (human MDR1)	–	MDR1-MDCKII	10 µM, 1 h, pH 7.4	–	Papp (A-B)	0.619 ± 0.064 ×10⁻⁶ cm/s
CC(C)n1c(/C=C/C(O)CC(O)CC(=O)O)c(-c2ccc(F)cc2)c2ccccc21 (centres unmarked)	SLCO1B3	uptake, substrate	HEK293-A stably expressing SLCO1B3	2 min	–	Vmax	332 ± 172 pmol/mg protein/min
COc1cc(OCCCCCCCC(=O)N[C@H](C(=O)N2C[C@H](O)C[C@H]2C(=O)NCc2ccc(-c3scnc3C)cc2)C(C)(C)C)c(C)cc1-n1nnc(S(=O)(=O)c2ccc(C(C)(C)C)cc2)c1C	NR1I2	degrader, HiBiT	SNU-C4 HiBiT-PXR knock-in cells	24 h	–	degradation	inactive
CC(C)Nc1ccnc(Nc2cccc(-c3cccnc3)c2)n1	P-glycoprotein (human MDR1)	–	MDR1-MDCKII	10 µM, 1 h, pH 7.4	–	Papp (B-A)	61.6 ± 26.1 ×10⁻⁶ cm/s
